Published values gathered from unrelated publications.
A part holds a random share of what one study measured. Changes are numbered by the printed parent chain.

Sample 1
Target: Prothrombin, mature alpha-thrombin (F2, Homo sapiens, UniProt P00734)
Technique: aptamer microarray, sandwich
Molecule type: DNA with 2'F-ANA
Sample: in vitro
Tested at: 200 nM
Notes: whole 15-mer aptamer, many near background
Added: Cy3 exosite-II aptamer, 400 nM
Reading: higher = stronger binding
Strand: GGTTGGTGTGGTTGG
Modification | mean fluorescence intensity
2'F-ANA at 6 8 10 12 13 | 176 a.u.
2'F-ANA at 1 3 4 5 7 8 10 11 12 | 70.8 a.u.
2'F-ANA at 1 2 4 7 9 11 13 15 | 75 a.u.
2'F-ANA at 1 4 7 9 11 14 15 | 48.1 a.u.
2'F-ANA at 4 5 9 10 12 15 | 54.8 a.u.
2'F-ANA at 1 4 5 6 8 11 12 13 | 67.1 a.u.
2'F-ANA at 3 4 6 8 9 12 14 15 | 281 a.u.
2'F-ANA at 1 2 3 6 8 12 13 | 348 a.u.
2'F-ANA at 1 5 8 12 13 14 | 47.7 a.u.
2'F-ANA at 2 5 9 10 12 13 15 | 53.2 a.u.
2'F-ANA at 1 2 3 10 12 13 | 92.4 a.u.
2'F-ANA at 1 2 5 6 7 8 9 12 15 | 137 a.u.
2'F-ANA at 2 3 4 5 6 9 10 14 | 47.4 a.u.
2'F-ANA at 2 5 6 8 9 10 11 13 15 | 61.5 a.u.
2'F-ANA at 1 5 7 9 11 12 13 14 15 | 45.7 a.u.
2'F-ANA at 2 4 6 7 8 12 13 14 15 | 109 a.u.
2'F-ANA at 1 2 4 10 13 15 | 45.6 a.u.
2'F-ANA at 4 5 8 10 11 13 | 72.5 a.u.
2'F-ANA at 1 2 3 5 6 7 9 11 13 | 77.5 a.u.
2'F-ANA at 1 2 4 5 6 7 8 12 13 14 | 46.9 a.u.
2'F-ANA at 1 3 5 7 9 10 11 15 | 76.5 a.u.
2'F-ANA at 1 3 4 7 9 10 11 13 15 | 59.7 a.u.
2'F-ANA at 1 7 10 13 | 50.1 a.u.
2'F-ANA at 2 4 5 7 8 9 12 13 14 | 46.9 a.u.
2'F-ANA at 1 4 5 7 | 60.5 a.u.

Sample 2
Target: Ras GTPase-activating protein-binding protein 1, RRM domain (G3BP1, Homo sapiens, UniProt Q13283)
UniProt Q13283, sequence (whole entry, looked up): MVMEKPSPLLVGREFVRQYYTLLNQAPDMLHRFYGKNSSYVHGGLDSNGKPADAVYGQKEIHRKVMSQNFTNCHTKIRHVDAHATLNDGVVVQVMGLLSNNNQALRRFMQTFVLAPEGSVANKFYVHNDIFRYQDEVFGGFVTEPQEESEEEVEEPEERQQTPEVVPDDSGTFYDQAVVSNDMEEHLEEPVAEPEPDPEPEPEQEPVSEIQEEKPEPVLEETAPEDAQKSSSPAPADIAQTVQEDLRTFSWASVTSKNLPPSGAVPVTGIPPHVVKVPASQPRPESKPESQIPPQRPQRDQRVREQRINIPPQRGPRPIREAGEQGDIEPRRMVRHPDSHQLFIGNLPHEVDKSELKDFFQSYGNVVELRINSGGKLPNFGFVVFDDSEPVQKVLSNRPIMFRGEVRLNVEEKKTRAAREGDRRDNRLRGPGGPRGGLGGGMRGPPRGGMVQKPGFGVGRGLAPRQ
Technique: RNA Bind-n-Seq
Molecule type: RNA
Sample: in vitro
Tested at: 1 µM
Notes: whole 134-nt RNA, ends assumed
Added: 150 mM KCl
Reference: input library
Reading: higher = stronger binding
Strand | log2 enrichment
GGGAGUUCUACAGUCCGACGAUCUCCUGUGCUACACAUCGUAUGUACCGAAUCGGGGCCCCCGGGGCCCCCGGCCCCCGGGGAAAGUAUUAUGUUACGCCGUUCGGAUCUGCAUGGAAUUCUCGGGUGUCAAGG | -0.831
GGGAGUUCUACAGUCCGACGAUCCCUCAAGUCCUGUGCUACACAUCGUAUGUACCGAAUCGGGGAGGGAGGGAGGGAAAGUAUUAUGUUACGCCGUUCGGAUCUGCACUUCCAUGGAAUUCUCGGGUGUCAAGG | 1.26
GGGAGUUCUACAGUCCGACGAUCACCAUGCAGGUGGGCAUCUUUGGGAAGUGGGGCAAGGGGGGGAUAGGGAAAGGGGUAACACUUUGGGAACAGGUGGUCCCAGGUCGUUUCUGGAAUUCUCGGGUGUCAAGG | -0.491
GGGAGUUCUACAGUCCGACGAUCCUCAAGUCCUGUGCUACACAUCGUAUGUACCGAAUCGGGAGGGUGGGAAAGGGAAAGUAUUAUGUUACGCCGUUCGGAUCUGCACUUCCAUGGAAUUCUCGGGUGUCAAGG | 0.664
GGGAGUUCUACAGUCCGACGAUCAAGUCCUGUGCUACACAUCGUAUGUACCGAAUCGGGGAAAGGGGAAAGGGGAAAGGAAAGUAUUAUGUUACGCCGUUCGGAUCUGCACUUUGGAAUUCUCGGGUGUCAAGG | -0.0713
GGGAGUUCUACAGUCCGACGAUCCUGUGCUACACAUCGUAUGUACCGAAUCGGGGCCCCCCCGGGCCCCCCCGGGGCCCCCCCGGAAAGUAUUAUGUUACGCCGUUCGGAUCUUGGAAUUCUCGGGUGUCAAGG | -0.643
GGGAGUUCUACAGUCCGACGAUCCCUGUGCUACACAUCGUAUGUACCGAAUCGGAAAAAAAGGAAAAAAAGGGGAAAAAAAGGAAAGUAUUAUGUUACGCCGUUCGGAUCUGCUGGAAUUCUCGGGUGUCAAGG | 0.159
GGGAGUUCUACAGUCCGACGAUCGCAGGAAGUAAAAACAAAUGGAUAUGCUUCGGAUAGUGGCAGGGGUGGGGGUUGCUAAGGAAAGGGUGGGAUGGGAGUGGGUAAAGAGUUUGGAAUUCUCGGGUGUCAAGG | 1.7
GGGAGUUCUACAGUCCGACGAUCCCUCAAGUCCUGUGCUACACAUCGUAUGUACCGAAUCGGUGGAAAAAGGUGGAAAGUAUUAUGUUACGCCGUUCGGAUCUGCACUUCCAGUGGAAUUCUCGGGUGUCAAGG | -0.234
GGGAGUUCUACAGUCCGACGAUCAGUCCUGUGCUACACAUCGUAUGUACCGAAUCGGGGAAAAGGGGAAAAGGAAAAGGGAAAGUAUUAUGUUACGCCGUUCGGAUCUGCACUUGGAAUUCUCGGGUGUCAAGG | -0.104
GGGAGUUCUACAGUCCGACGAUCCCUCAAGUCCUGUGCUACACAUCGUAUGUACCGAAUCGGGCCGGGCCGGCCGGAAAGUAUUAUGUUACGCCGUUCGGAUCUGCACUUCCAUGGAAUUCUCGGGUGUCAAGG | -0.357
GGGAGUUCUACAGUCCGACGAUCUGGCCCUGGUGGCAUGCGGGGAGGAAGAGGUGGCCUCAUGGAUCGUGGUGGUCCCGGUGGAAUGUUCAGAGGUGGCCUUGGUGGAGACAGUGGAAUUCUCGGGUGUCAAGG | 1.5
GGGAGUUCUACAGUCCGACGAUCACCAUGCAGGUGGGCAUCUUUGGGAAGUGGGGCAACGGGGGGAUAGGGAGGGGGGUAACACUUUGGGAACAGGUGGUCCCAGGUCGUUUCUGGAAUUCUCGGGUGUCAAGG | -0.344
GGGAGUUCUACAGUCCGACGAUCAGUCCUGUGCUACACAUCGUAUGUACCGAAUCGGGGAAAGGGGAAAAAGGGGAGGGGAAAGUAUUAUGUUACGCCGUUCGGAUCUGCACUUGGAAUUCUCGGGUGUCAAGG | 1.45

Sample 3
Target: CCND3, cyclin fold, Cln2 fusion (human)
Technique: yeast growth competition, sequencing
Sample: yeast
Notes: weak parent motif
Reference: not given
Reading: higher = stronger binding
Parent: RB1 docking peptide (human); PKPLKKLRFDIEG
Change | normalised enrichment score
G13D | 0.0788
P1D | 0.252
K2I | 0.182
F9T | 0.163
P1I | 0.0248
K5C | 0.113
L7Y | 0.109
I11K | 0.126
D10N | 0.213
L4G | 0.207
K6V | 0.0559
K2R | 0.262
K5E | 0.0854
L4V | 0.105
L4I | 0.288
L4E | 0.16
R8N | 0.106
R8M | 0.0996
E12C | 0.138

Sample 4
Target: Sal-like protein 4, full length isoform B (SALL4, Homo sapiens, UniProt Q9UJQ4-2, residues 1-616)
Technique: universal PBM
Molecule type: double-stranded DNA, one strand shown
Sample: in vitro
Tested at: not given
Notes: 8-mer, flanks averaged, mean of replicates
Reading: higher = stronger binding
Strand | E-score
CCCAAACG | -0.163
CTAGAGAC | -0.136
GTATTGAC | 0.041
TACCCAAA | 0.0314
CGTATACG | 0.148
AACACTAT | 0.338
ATGAAAGA | 0.195
AGTGCTAC | 0.0168
GACATCTC | -0.0393
GACCCATA | 0.144
CGCTTTCC | -0.22
GACATCGA | -0.0554
ACGATGCC | -0.261
AACCTCAC | -0.0848
AACTCCCG | -0.0924
GTGCCACA | -0.198
ACATAAAA | 0.297
CGCTTCAG | -0.0523
ATTCGTAA | 0.254
ATCTTGCG | 0.0815
GCCTAGCA | -0.0839
CTCGTTTC | -0.0724
AGCGCCTG | -0.277
CCACATAA | 0.192
AATACTAT | 0.295

Sample 5
Target: RNA binding protein fox-1 homolog 2, RRM domain, GST-SBP tag (RBFOX2, Homo sapiens, UniProt O43251-10, residues 100-194)
Technique: RNA Bind-n-Seq
Molecule type: RNA
Sample: in vitro
Tested at: 365 nM
Notes: natural RNA segment, single round, ends assumed
Reference: no-protein control
Reading: higher = stronger binding
Residues (chain): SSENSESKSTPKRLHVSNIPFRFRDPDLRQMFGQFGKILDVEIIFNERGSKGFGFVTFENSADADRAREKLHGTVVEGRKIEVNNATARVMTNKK
Strand | RBNS enrichment (R)
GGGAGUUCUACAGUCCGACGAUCAACCCUGCCUGACCUCCUUUGCAGUCAUCAUCUGUCUUUUCUUGGCGUGGGUGCUCACCUCACUUAUCCUCGGGGUUUGGGACCUGGCAUCAGGACCUCUCCACCCAGGAUGGAAUUCUCGGGUGCCAA | 0.587
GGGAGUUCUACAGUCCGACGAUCCAAAUGUCAAUCUUUAUUAGAAAGCAUUUUCUAGGUGUGUUUAGUGUGCAAAGAAACUUUCUAACCCUUACCGGACACCGCACAGCUUCCUGCACUCAAGCCGCAGGGUAUGGAAUUCUCGGGUGCCAA | 0.368
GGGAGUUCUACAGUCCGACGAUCCAGACAAACCCCGGCCUGCGCGCCUGCAGAGCGGCGGCUGGAGACUGGAGCCACCGCCUCGCGGGUGCAGCAGCACAGCAGGCACGGUUCGGGGAGGGAUUCGGCAUGGCUGGAAUUCUCGGGUGCCAA | 0.817
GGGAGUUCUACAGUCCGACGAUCUUAUCUUAAUACAUCAAGAAGGAAAUCAGAUUUCAGGCACACAUUAGCAAUUGUUUGUUAAUGUCCUUGGCAAACGUGUACCUGCUUUCCUUCAUUGUUCUCUUCAGGGGUGGAAUUCUCGGGUGCCAA | 0.477
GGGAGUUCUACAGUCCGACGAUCUUUAGUGACUAGUGUGUAGUGAGUCACGAUCAAGGCAUCCUUCAGCUUAGCAUUUUCAGUACUCACUGCUGAUCCUUGGUAGAAGUGCAGACUAGAAUAGAGCUAAAAAUUGGAAUUCUCGGGUGCCAA | 0.608
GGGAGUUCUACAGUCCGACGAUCUUAAUGACCAUUUCCUGGAAUCAGUUUAUUAUACUGAAAACUGGGGGUGGGAGUAGGGAGCUAGUUUGUUGAUAAAUAGUUCCCAUUUCCCCAUGGAGAAUUUGACAUACUGGAAUUCUCGGGUGCCAA | 0.312
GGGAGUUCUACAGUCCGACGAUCCCCAGCGCAGCACUAAGCCUUAAGCCACCCAAGGGCUGACACACCAUGCAGAGCUACGAAAUCUGUGCUGAGAAAAUGCCAUCUGGAAAGAUUUUUAACCCAUUCAUUCUUGGAAUUCUCGGGUGCCAA | 0.557
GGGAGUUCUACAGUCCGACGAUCAAACCUUGUUUGUUUUAUUCACCAUCAUGUACCAAGUGCUUGGCACAUAGUGGGCCUUCAUUAAAUGUUUGUUGAAUAAAAGAGGGAAGAAGGCAAGCCAACCUUAGCUAUGGAAUUCUCGGGUGCCAA | 0.37
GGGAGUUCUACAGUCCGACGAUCUGUGCUGUGGAAUGUGAUGCUUGUCCUCAUAUAGUCUCAGUUUCUCUUUUUAUGCAGAUAUUUGUGACCUUCAUCUUGCACAUACAACCAAAUUAUUUUAAGGUGCAUAGUGGAAUUCUCGGGUGCCAA | 0.391
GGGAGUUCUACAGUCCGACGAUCGGUAGGGUGAUGGCAGUGCUCCGGGAACUGGGCCUGCAGCCUUCCUCUUCUGGGACUGCUGUGAGGCAGAGGAAUGAUGGAGAAUCUAGUGUAGCAGCCUCCAGGCAGGAUGGAAUUCUCGGGUGCCAA | 1.03
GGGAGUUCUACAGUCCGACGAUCUAGGCCUGGCUUUCUCAACUGCCUGAGGCUGUUGCGCAGCAUUGCUGCCUCAUGUGACUGCCGUGCCUGUGAAUACGCAGAACCAGGACUCCACCCCACCGUGGAAAGGGUGGAAUUCUCGGGUGCCAA | 0.677
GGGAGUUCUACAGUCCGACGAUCCAGUCACUAAGAGCAGUGGCUAACCUCAUCGAAGUUGGAAGGAAUGUUUUUAAAAUUACCUCUUCGAGCCUGAAUACAAAGAAUAAAAGAAUAAAAGAAUUCUUUUAAUUUGGAAUUCUCGGGUGCCAA | 0.768

Repeated from above (sample 3):
Change | normalised enrichment score
F9T | 0.163
P1I | 0.0248
K5C | 0.113
L7Y | 0.109
I11K | 0.126
D10N | 0.213
L4G | 0.207
K6V | 0.0559
K2R | 0.262
K5E | 0.0854
L4V | 0.105
L4I | 0.288
L4E | 0.16
R8N | 0.106
R8M | 0.0996
